Experimental data collected from several papers.
Numbered parts are unrelated; each lists some results of a single study. Changes are numbered by the printed parent chain.

Block 1 — method: RNA Bind-n-Seq; molecule type: RNA; matrix: in vitro; concentration: 365 nM; reference: no-protein control; direction: higher = stronger binding
Target: RNA binding protein fox-1 homolog 2, RRM domain, GST-SBP tag (RBFOX2, Homo sapiens, UniProt O43251-10, residues 100-194)
Setting: natural RNA segment, single round, ends assumed
Constant ends, left off below: GGGAGUUCUACAGUCCGACGAUC … UGGAAUUCUCGGGUGCCAA
Residues (chain): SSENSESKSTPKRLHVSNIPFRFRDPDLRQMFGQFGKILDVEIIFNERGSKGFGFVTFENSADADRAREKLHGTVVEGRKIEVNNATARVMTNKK
`AUGGUCCUGGGGAUGCCACCUGCUUCUAUGCUUUAUGCAUCAGGAUACUCUCAGGACGUGAGUGUUCACAAGACACGUUUCCCAAAAAAUGCAAAGGUUUCACUGAAAAU` — result for “RBNS enrichment (R)”: 0.41.
`GCUCUUUGUCUGCUCAAAGGAAACUUGAAAUAUCUGAGUAAAAGUCAAAGAAACCCAGCUAAGUAAGCAACAUAAAGCCUGUUGUGUCAGGUCCUGCAGGUCGAUGUGUG` — result for “RBNS enrichment (R)”: 0.426.
Under “RBNS enrichment (R)”, `UCAGCUAUGGCUUGACGUAAUCGCUUUUAGACCCAGGUUGGCUUCCCUUCAUUAAGCUAUGAUCCUCCACCCCAUUUUUUUUUUUUUUAAUUUGGAGUGGGAGGGAGGGG` is recorded as 0.239.
`AAUUUUGGAAAAAAAGAAAUGUGAAGGGUCAACUCCAACGUAUGUGGUUAUCUGUGAAAGUUGCACAGCGUGGCUUUUCCUAAACUGGUGUUUUUCCCCCGCAUUUGGUG` — result for “RBNS enrichment (R)”: 0.443.
For `UGUCACUUUGCCUGGAGGUGCUUCAAGCCUUUAACAAGGAGCAGAGAAGAAUUGGAGCCAGACUUUAGUGAACUCAGCUCAGAGUUGUAAGGACCAGCACACUGGUGGCC`, “RBNS enrichment (R)” read 0.269.
`AGGCAUCAAAAUGAGUUGACAGCCAGGCCUGGUGGUACAGGCCAGUAAAGCCAGCUGCUCUGGAGGCGGAGGCAGGAGGAUCUCAAAUUCAAGCCUGCUUAAGCUACUUA`: “RBNS enrichment (R)” 0.28.

Block 2 — target: CCNE2, cyclin fold, Cln2 fusion (human); method: yeast growth competition, sequencing; matrix: yeast; setting: strong parent motif; reference: not given; direction: higher = stronger binding
Parent: BRCA2 docking peptide (human); PSIKRNLLNEFDR
`K4S` — result for “normalised enrichment score”: 0.296.
`S2I` — result for “normalised enrichment score”: 0.985.
For `R5A L7A`, “normalised enrichment score” read 0.0389.
Under “normalised enrichment score”, `N9E` is recorded as 1.4.
Under “normalised enrichment score”, `S2F` is recorded as 0.809.
Under “normalised enrichment score”, `S2V` is recorded as 0.731.
For `K4W`, “normalised enrichment score” read -0.25.

Block 3 — method: protein binding microarray; molecule type: double-stranded DNA, one strand shown; matrix: in vitro; concentration: not given; reference: not given; direction: higher = stronger binding
Target: Histone acetyltransferase KAT6A, winged helix 1, GST fusion (KAT6A, Homo sapiens, UniProt Q92794, residues 1-85)
Setting: 8-mer, flanks averaged, mean of 2 arrays, mostly near background
Construct (chain): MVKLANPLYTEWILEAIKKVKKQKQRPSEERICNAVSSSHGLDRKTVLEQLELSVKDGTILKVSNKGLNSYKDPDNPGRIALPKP
`AGAACTCG` gave an E-score of -0.125.
With `CCGAATCA` the E-score was -0.0362.
The E-score of `CACTCGAA` is reported as -0.364.
`AGCCATCA` gave an E-score of -0.0543.
For `CTGACGGC`, the E-score was 0.354.
For `CGGGGGAC`, the E-score was 0.302.
For `CTCAGCAA`, the E-score was -0.116.

Mixed results
`PhoQ, residues 284 288 289 292 302 303 AGCYAI` has a fold induction of 0.782 (PhoP, residues 12 14 15 18 19 TPWLV (Escherichia coli, UniProt P23836); Sort-seq, item: YFP reporter; E. coli; PhoQ-PhoP variant library, together with: 10 µM Mg2+; reference: high Mg2+ state, higher = stronger signaling).

Some of these lines once more (block 3):
With `CCGAATCA` the E-score was -0.0362.
The E-score of `CACTCGAA` is reported as -0.364.
`AGCCATCA` gave an E-score of -0.0543.
